Measurements of several laboratories.
Each line is one published result; not all experiments were run side by side. Numbers after ± are the reported error.
Target: Muscarinic acetylcholine receptor M2 (CHRM2, Homo sapiens, UniProt P08172)
UniProt P08172, sequence (whole entry, looked up): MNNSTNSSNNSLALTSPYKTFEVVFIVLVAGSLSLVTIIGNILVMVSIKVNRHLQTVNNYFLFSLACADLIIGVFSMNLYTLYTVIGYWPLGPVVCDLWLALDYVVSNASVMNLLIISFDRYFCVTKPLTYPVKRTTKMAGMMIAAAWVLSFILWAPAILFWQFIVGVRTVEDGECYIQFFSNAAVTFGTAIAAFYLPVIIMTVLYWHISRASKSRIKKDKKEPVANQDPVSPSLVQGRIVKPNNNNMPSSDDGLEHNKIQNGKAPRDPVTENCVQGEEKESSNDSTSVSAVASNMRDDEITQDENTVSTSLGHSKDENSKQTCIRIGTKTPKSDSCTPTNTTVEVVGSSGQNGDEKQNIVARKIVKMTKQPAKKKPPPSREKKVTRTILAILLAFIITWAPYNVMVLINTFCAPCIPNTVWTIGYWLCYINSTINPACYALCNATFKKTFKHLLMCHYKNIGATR

The activation of `COc1ncc2nc(C)n(Cc3ncc(S(N)(=O)=O)cc3F)c2c1-c1ccccc1` is reported as 8.7% (agonist, cell-based; 10 µM).
`C=CCn1c(=O)c2ccccc2n2c(SCC(=O)Nc3ccc(NC(C)=O)cc3)nnc12` has a cooperativity factor of 5.5 ± 0.1 (allosteric modulator; together with: [3H]NMS).
The basal binding of `CCCCOc1ccc(C(=O)OCC[N+]2(C)CC=CCC2)cc1` (centres unmarked) is reported as 1.4 ± 0.07 fold (membranes; 10 µM, 15 h, no carbachol; relative to: control).
`O=C1c2sc(-c3ccc(N4CCC(CO)CC4)nc3F)nc2CCN1c1cccnc1` has an inhibition of -4% (ligand displacement, radioligand; 1 µM).
With `Cn1ccc2cc(-n3c(=O)[nH]c4sc5c(c4c3=O)CCCC5)ccc21` the inhibition was 0% (cell-free assay, radioligand; 10 µM).
The inhibition of `Cc1cccc(O[C@H]2CCC[C@@H](C(C)CNCc3ccncc3)C2)c1` (relative stereo) is reported as 79% (ligand displacement; 10 µM).
`C=CCn1c(=O)c2ccccc2n2c(SCC(=O)NC3CC3)nnc12` has an Emax of 258 ± 20% (receptor activation, agonist; concentration not given, 16 h).
For `CCCCCCOc1ccc(C(=O)OCCN2CC=CCC2)cc1`, the basal binding was 1.4 ± 0.1 fold (membranes; 10 µM, 15 h, no carbachol; relative to: control).
`C[Si](C)(C)C[C@@H](CN)CC(=O)O` gave an inhibition of -2% (ligand displacement, radioligand; 75 µM).
`CO[C@@H](C)c1c(NC(=O)Nc2cnc(-n3nccn3)c(C(F)(F)F)c2)cnc2sc(C)nc12` gave an inhibition of 8.3% (ligand displacement, radioligand; 10 µM).
For `C=CCn1c(=O)c2ccccc2n2c(SC3CCOC3=O)nnc12` (centres unmarked), the Emax was 244 ± 38% (receptor activation, agonist; concentration not given, 16 h).
For `CCC(=O)N(C)c1ccc(Cl)c(Cl)c1`, the inhibition was less than 10% (ligand displacement, radioligand; 10 µM).
The Emax of `C=CCn1c(=O)c2ccccc2n2c(SCC(=O)NCc3ccc(NC(C)=O)cc3)nnc12` is reported as 222 ± 15% (receptor activation, agonist; concentration not given, 16 h).
`CCCCCCOc1ccc(C(=O)OCC[N+]2(C)CC=CCC2)cc1` (centres unmarked) gave a basal binding of 0.88 ± 0.05 fold (membranes; 100 µM, 15 h, no carbachol; relative to: control).
With `CC(C)Cn1c(SCC(=O)N2CCc3ccccc3C2)nc2cc(Cl)ccc2c1=O` the inhibition was 23% (ligand displacement, radioligand; 10 µM).
For `CCCCOc1ccc(C(=O)OCCN2CC=CCC2)cc1`, the basal binding was 1.13 ± 0.05 fold (membranes; 1 µM, 15 h, no carbachol; relative to: control).
The inhibition of `COCC(=O)N1CCc2cc(-c3csc(NC(=O)c4cc(OC)cc(OC)c4)n3)ccc21` is reported as -9% (ligand displacement, radioligand; 10 µM).
